Measurements from different studies.
Each numbered part is a random draw from the data of one study; scales do not carry over between parts. Substitutions count along the parent as printed.

Study 1
Target: Histone acetyltransferase KAT6A, winged helix 2, GST fusion (KAT6A, Homo sapiens, UniProt Q92794, residues 85-181)
Method: protein binding microarray
Form: double-stranded DNA, one strand shown
Matrix: in vitro
Concentration: not given
Notes: 8-mer, flanks averaged, mean of 2 arrays, mostly near background
Baseline: not given
Direction: higher = stronger binding
Target sequence (chain): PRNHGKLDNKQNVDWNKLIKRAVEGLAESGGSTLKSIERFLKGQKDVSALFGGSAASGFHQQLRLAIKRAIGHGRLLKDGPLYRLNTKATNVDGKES
Strand	E-score
CTCTGAGC	-0.0108
TACTTACA	-0.147
ATAGAAGC	0.0264
ATCACAAT	-0.0509
ATTTCTAA	-0.0969
CCATCGGG	0.185
ATTAAGAC	-0.0523
CCGATCCC	0.0449
ACGTCGGG	-0.00464
AGGCACGA	-0.0226
ATCGGTTG	-0.0833
ATTGCATG	0.128
GTCGGACA	0.0141
CGAACCCC	0.116
AAGCGACG	-0.111
AGTCAACA	-0.139
CCCTCGTC	0.011
AAAAATCA	0.107
CTCCTTGC	-0.073
ACAACCTA	-0.0831
GCCACAGC	0.0855
AGGGATCG	0.0381
ACACCACC	-0.303
GGCGGTGA	0.0089
ACGGGTCT	-0.202

Study 2
Target: CCND2, cyclin fold, Cln2 fusion (human)
Method: yeast growth competition, sequencing
Matrix: yeast
Notes: weak parent motif
Baseline: not given
Direction: higher = stronger binding
Starting sequence: ORC1 docking peptide (human); PRARKRLELGNLG
Substitution	normalised enrichment score
PRARKRLELGTLG [N11T]	-0.045
PRARKRLELDNLG [G10D]	0.365
PRARKRLELGNLK [G13K]	-0.00739
PRARKRGELGNLG [L7G]	-0.0747
PYARKRLELGNLG [R2Y]	-0.294
PRARKRLELGILG [N11I]	-0.244
PRSRKRLELGNLG [A3S]	0.392
PRARKILELGNLG [R6I]	0.691
PRARKRLELGWLG [N11W]	0.237
RRARKRLELGNLG [P1R]	0.33
PRARKRLELGNAG [L12A]	0.0384
PRWRKRLELGNLG [A3W]	-0.105
PRARSRLELGNLG [K5S]	0.278
PRARKRLELHNLG [G10H]	0.0747
PRARRRLEFGNLG [K5R L9F]	1.17
PRARTRLELGNLG [K5T]	0.187
MRARKRLELGNLG [P1M]	-0.00802
PRAAKRLELGNLG [R4A]	0.114
PRAQKRLELGNLG [R4Q]	-0.0432
PRACKRLELGNLG [R4C]	-0.197

Study 3
Target: JUN, bZIP domain (human)
Method: DHFR protein complementation
Matrix: yeast
Notes: single substitutions, most at no-binding floor
Baseline: wild-type JUN-FOS pair
Direction: higher = stronger binding
Starting sequence: JUN, bZIP domain (human); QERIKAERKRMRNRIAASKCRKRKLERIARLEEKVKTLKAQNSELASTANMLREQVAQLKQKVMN; partner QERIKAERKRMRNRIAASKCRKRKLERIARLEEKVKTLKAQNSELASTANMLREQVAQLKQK
Substitution	binding fitness [natural log]
A46W	-0.48
S47H	-0.129
K36S	-0.321
R30F	-0.21
E32M	-0.51
Q55R	-0.642
E44H	-0.354
L45M	-0.633
V56K	-1.06
K34N	-0.367
A46E	-0.108
A40E	-0.132
E32R	-0.442
E32S	-0.664
V56E	-0.919
E32V	-0.44
T48C	-0.411
A29L	-0.525

Study 4
Target: RNA binding protein fox-1 homolog 2, RRM domain, GST-SBP tag (RBFOX2, Homo sapiens, UniProt O43251-10, residues 100-194)
Method: RNA Bind-n-Seq
Form: RNA
Matrix: in vitro
Concentration: 365 nM
Notes: natural RNA segment, single round, ends assumed
Baseline: no-protein control
Direction: higher = stronger binding
Shared flanks, not repeated: GGGAGUUCUACAGUCCGACGAUC … UGGAAUUCUCGGGUGCCAA
Construct (chain): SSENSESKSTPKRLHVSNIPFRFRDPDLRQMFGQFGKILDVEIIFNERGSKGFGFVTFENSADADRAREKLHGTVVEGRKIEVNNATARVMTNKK
Strand	RBNS enrichment (R)
AAUGCCUUGUACUACAGGCAGCCUCUGAAGGUGACCACAUAACUGUCUUCACUGUGACCAAUCGGAGUCCCUGCUUGCUUGUGAAGAAGGGGCUUUUGUACCUUGUUGGA	0.542
GAGUUCAAGCGUUGUCUUUUUAAGUUUAAAAAACUAUAAAGGGUUGUUUUUACUAGGUAGACUGGCAUCUGGGUAGAGGCUGCCUGGGAUUUUUAUCCCCACAUAACCAG	0.331
UGUAUCCAAGAAAGCAAGCAAAUGAAAAGAAACCUAUUUAUGGAAUAAACUCCAGAUCUGAAAUUCAGUAUUUUAGAAAAAUGCCAGCUCUUCUUACUGUAUUUAUUAAA	1.24
CACCUGGAACUGGAUUGGGAAGAGAACAGGACUUGGUGGCCAGGACCGCUCAGAGAGCCAUGGUUGCUCAGGGAUGCUGCUCCGGGAUGCUUGACUAACAGUCGAGGCAG	1
UAGGUGUCUUUAAGAAAAUAACAAGCAACCCUGUGAUAUGUUCCGUCUCUCCCAAUUCCCUCGUUAUAUAGAGGGCUUAAUGGUAUAAAUGGUUAAUAUUGGUCCCAACA	0.948
GUGCCCUAGCUUUUCUUGCAACCAGAGUAUUUUUGUACAGAUUUGCUUUCUCUUACAAAAAGAAAAAAAAAAUCCUGUUGUAUUAACAUUUAAAAACAGAAUUGUGUUAU	0.557
AUUUUGAAUGAGAUCUACCGACUCACUUGUGAGAAUAUUUUUCACAGAUUAUCUUUGGGCCUUUUCAUUAGAAAGCUGUUUGUUUGUCCCCCUGUUGGUACAUUUGGUUA	1.12
UCGCUUGUGCAAAAGGGAAUAGUGCCGUGGAAGUGUGUGUCCAUGGCAGUUUGGACAGGGGUGACUGUUCACACGUAUGGACAGGCCUCGCCUGGGGAGUAAGGCCACCA	0.865
GAGAGGCAGAAGCUGAAGGUUCUAUAUCCAGUGUGUUUUAUGUCCAGAAUGUAAGAGAGUUGUCUAAGCAGCAGCUGAGAGAGAGCGGAGCCUAUUUCUAGCCACUCCUG	0.943
GGACCAAUGGGCCCAAGAUAGGUGCCCCAGAGCUGUUAAUGACUUCAGCUGCCUCACUUCCUGCAAGAUUGGCCUGUGGCAUCUUUGCCUUGGGUGUUGGCCACAGGGUC	0.475
UCAUUUUUGUAAGAUAGAUUGUAAUAGAUGCUGUUUAUACUAAACAUGUCAUAACUAUCUAUACAGUAUAUAUUAAAAGAAAGCUUGUACUGUAUCUUAUUUGAUGAUAU	0.475
CUAAAUCAUACCCCACUCCCCACUCCCAUUUCGAUUCUCCAGCGGCUCCUUUUAGUUUGUUGUCUUGCCCUACUGUGUAGCUCACUGACUGAGAAUAAAGAAUACAGCAA	3.33

Study 5
Target: ABI1, truncated, D143A, DHFR fusion (Arabidopsis thaliana)
Method: DHFR PCA, deep sequencing
Matrix: yeast
Notes: methotrexate growth selection, single substitutions
Added: (+)-ABA 710 µM
Baseline: wild-type fitted maximum
Direction: higher = stronger binding
Starting sequence: PYL1, truncated, DHFR fusion (Arabidopsis thaliana); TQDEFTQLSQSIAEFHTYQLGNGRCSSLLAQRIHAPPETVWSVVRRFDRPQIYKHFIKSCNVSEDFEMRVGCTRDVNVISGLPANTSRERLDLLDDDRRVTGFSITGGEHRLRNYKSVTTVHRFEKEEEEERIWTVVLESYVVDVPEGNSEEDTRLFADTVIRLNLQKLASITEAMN
Substitution	relative binding score [%]
L28G	54.4
V143S	82.1
R99A	97.9
R98I	102
D97Q	114
E130S	112
G81M	50.3
T160M	102
E151Y	95.4
E151D	101
L156Y	92.6
F5M	106
I12S	72.3
I133C	111
E38L	78
G108F	19.5
V100M	108
